Values quoted from earlier work as cited in several papers.
Each line is one published result; not all experiments were run side by side.
Sequence of UniProt Q8TDX7 (whole entry, looked up): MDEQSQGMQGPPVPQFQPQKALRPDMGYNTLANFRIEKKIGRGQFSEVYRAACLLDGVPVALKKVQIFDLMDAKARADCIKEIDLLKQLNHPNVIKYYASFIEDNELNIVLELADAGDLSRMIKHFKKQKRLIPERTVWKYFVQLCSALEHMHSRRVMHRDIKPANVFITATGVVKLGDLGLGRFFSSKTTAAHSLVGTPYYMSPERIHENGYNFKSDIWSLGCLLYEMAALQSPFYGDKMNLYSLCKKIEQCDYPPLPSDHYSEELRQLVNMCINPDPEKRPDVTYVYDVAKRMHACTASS

For `CC(C)(O/N=C(\C(=O)N[C@@H]1C(=O)N2C(C(=O)[O-])=C(C[n+]3ccccc3)CS[C@H]12)c1csc(N)n1)C(=O)O`, the MIC was ≤ 2 mg/L (Enterobacter cloacae; clinical isolate RKI-No_287/13).
`N#CCNC(=O)c1ccc(-c2ccnc(Nc3ccc(N4CCOCC4)cc3)n2)cc1`: “contribution to metabolism” 19% (CYP2C8; human hepatocytes).
The EC50 of `CO[C@H]1/C=C/O[C@@]2(C)Oc3c(C)c(O)c4c(O)c(c(/C=N/N5CCN(C)CC5)c(O)c4c3C2=O)NC(=O)/C(C)=C\C=C\[C@H](C)[C@H](O)[C@@H](C)[C@@H](O)[C@@H](C)[C@H](OC(C)=O)[C@@H]1C` is reported as 300 nM (CYP2C8; inducer).
`COc1cc(Cc2cnc(N)nc2N)cc(OC)c1OC` gave a Ki of 29 to 34 µM (CYP2C8; inhibitor).
The EC50 of `CO[C@H]1/C=C/O[C@@]2(C)Oc3c(C)c(O)c4c(O)c(c(/C=N/N5CCN(C)CC5)c(O)c4c3C2=O)NC(=O)/C(C)=C\C=C\[C@H](C)[C@H](O)[C@@H](C)[C@@H](O)[C@@H](C)[C@H](OC(C)=O)[C@@H]1C` is reported as 300 nM (CYP2C8; enzyme induction; Simcyp compound file).
With `C=C[C@@H]1C[C@]1(NC(=O)[C@@H]1C[C@@H]2CN1C(=O)[C@H](C(C)(C)C)NC(=O)O[C@@H]1C[C@H]1CCCCCc1nc3ccc(OC)cc3nc1O2)C(=O)NS(=O)(=O)C1CC1` the IC50 was 6 µM (CYP2C8; inhibitor; human liver microsomes).
The Ki of `Cc1nn(C)cc1S(=O)(=O)NC(=O)c1ccc(-n2ccc(OCC(C)(C)C(F)(F)F)n2)nc1N1C[C@@H](C)CC1(C)C` is reported as 8.35 µM (CYP2C8; inhibitor).
`COC(=O)N[C@H](C(=O)N1CCC[C@H]1c1nc(-c2ccc3c(c2)O[C@@H](c2ccccc2)n2c-3cc3cc(-c4c[nH]c([C@@H]5CCCN5C(=O)[C@@H](NC(=O)OC)C(C)C)n4)ccc32)c[nH]1)C(C)C` gave an IC50 of > 100 µM (CYP2C8; inhibitor; human liver microsomes).
`Cc1ccc(NC(=O)c2ccc(CN3CCN(C)CC3)cc2)cc1Nc1nc(-c2cccnc2)cs1` has an IC50 of 4.12 µM (CYP2C8; reversible inhibitor).
With `CC1(C)S[C@@H]2[C@H](NC(=O)[C@H](N)c3ccccc3)C(=O)N2[C@H]1C(=O)O` the MIC was > 16 mg/L (Acinetobacter baumannii; clinical isolate RKI-No_14/16).
With `CNCc1cn(S(=O)(=O)c2cccc(F)c2)c(-c2ccc(F)cc2F)c1OC` the IC50 was > 50 µM (CYP2C8; enzyme activity, inhibitor).
`Nc1cc(C(F)(F)F)c(-c2nc(N3CCOCC3)nc(N3CCOCC3)n2)cn1` gave a remaining activity of 100% (Serine/threonine-protein kinase Nek7 (NEK7, Homo sapiens, UniProt Q8TDX7); enzyme activity; 10 µM; relative to: untreated).
`N#CCNC(=O)c1ccc(-c2ccnc(Nc3ccc(N4CCOCC4=O)cc3)n2)cc1` — result for inhibition: “no inhibition” (CYP2C8; enzyme activity, inhibitor; concentration not given).
`COC(=O)[C@H](c1ccccc1Cl)N1CCc2sccc2C1` gave a Ki of 26.8 µM (CYP2C8).
With `CC(C)(CO)c1cc2cc(NC(=O)C3(c4ccc5c(c4)OC(F)(F)O5)CC3)c(F)cc2n1C[C@@H](O)CO` the Ki was 13 µM (CYP2C8; inhibitor).

Repeated from above:
With `C=C[C@@H]1C[C@]1(NC(=O)[C@@H]1C[C@@H]2CN1C(=O)[C@H](C(C)(C)C)NC(=O)O[C@@H]1C[C@H]1CCCCCc1nc3ccc(OC)cc3nc1O2)C(=O)NS(=O)(=O)C1CC1` the IC50 was 6 µM (CYP2C8; inhibitor; human liver microsomes).
